Measurements gathered from unrelated publications.
Protocols differ between the studies behind these lines. ± gives the spread as reported.

SMILES = Cc1c(OCc2ccccc2)c(=O)ccn1CCCOC(=O)c1ccccc1[N+](=O)[O-]; cell line = fibroblast cells; test = cell viability, MTT; conditions = 48 h; IC50 = 190 µg/mL
SMILES = COC(=O)[C@H](CSSC(C)(C)[C@H](NC(=O)[C@H](CCC(=O)NC[C@H](O)[C@@H](O)[C@H](O)[C@H](O)CO)NC(=O)[C@H](CCC(=O)O)NC(=O)[C@H](CCC(=O)NC[C@H](O)[C@@H](O)[C@H](O)[C@H](O)CO)NC(=O)[C@H](CCC(=O)O)NC(=O)[C@H](CCC(=O)NC[C@H](O)[C@@H](O)[C@H](O)[C@H](O)CO)NC(=O)CC[C@H](NC(=O)c1ccc(NCc2cnc3nc(N)[nH]c(=O)c3n2)cc1)C(=O)O)C(=O)O)NC(=O)CC[C@H](NC(=O)c1ccc(NCc2cnc3nc(N)nc(N)c3n2)cc1)C(=O)O; cell line = THP-1 expressing FRβ; test = cell viability, XTT; conditions = 2 h pulse, 70 h chase; IC50 = 0.0087 µM
SMILES = Cc1ccc2ncc(Nc3ccc(C(=O)NO)cc3)n2c1; cell line = CAL-27; test = HDAC activity, inhibitor, whole-cell; IC50 = 17.5 µM
SMILES = Cc1nnc(-c2ccc(N3CCC(Oc4cc(F)ccc4Cl)CC3)nn2)o1; cell line = NSCLC cell lines; test = cell viability; conditions = range over eight lines; IC50 = 0.003 to 0.015 µM
SMILES = COc1cc(CC(=O)N2CC(=O)N[C@@H](Cc3ccccc3)CN(C(=O)Cc3ccc4ccccc4c3)CC(=O)N[C@@H](CCCCN)CN(C(=O)Cc3ccc4c(c3)OCO4)CC(=O)N[C@@H](CCCCN)CN(CC(N)=O)C(=O)CCSCc3ccc(cc3)C(=O)N[C@@H](CC(C)C)C2)cc(OC)c1; cell line = SK-BR-3; test = western blot, item: phospho-HER2; conditions = 4 h; IC50 = 12.9 µM
SMILES = COc1cc(CN2CCN(c3ccc(F)cc3)CC2)c2cc3[n+](cc2c1O)CCc1cc2c(cc1-3)OCO2; cell line = Ca-Ski; test = cell growth or viability, SRB; conditions = 48 h; IC50 = 5.78 µg/mL
SMILES = CCc1n(CC(=O)O[C@@H]2C[C@H](C)CC[C@H]2C(C)C)c2ccccc2[n+]1C; cell line = Daoy; test = cell growth or viability; IC50 = 8.26 µM
SMILES = Brc1ccc(Nc2nc(NN=Cc3c[nH]c4ccccc34)nc(N3CCOCC3)n2)cc1; cell line = SK-BR-3; test = cell growth or viability, SRB; conditions = 5 days; IC50 = 0.4 µM
SMILES = CC1(C)CCCC(C)(C2CCC3(C)C2C(O)CC2C4(C)CCC(OC(=O)NC5CCCCC5)C(C)(C)C4C(O)CC23C)O1 (stereo not shown); cell line = Hep3B; test = HRE reporter gene, inhibitor; conditions = 24 h, hypoxia; IC50 = 4.09 ± 0.12 µM
SMILES = Cc1ccc(C(=O)OCCCn2ccc(=O)c(OCc3ccccc3)c2C)cc1; cell line = fibroblast cells; test = cell viability, MTT; conditions = 48 h; IC50 = 95 µg/mL
SMILES = CN1CCc2cc(Nc3ncc(C(F)(F)F)c(NCc4cc[nH]n4)n3)ccc2C1; cell line = GL261; test = cell growth or viability, MTT; conditions = 72 h; IC50 = 2.77 µM
SMILES = COc1cccc(-c2ccc(Nc3ccc(CN(C)C)cc3)c(OC)c2F)c1; cell line = SNU-1; test = ERK phosphorylation, HTRF; IC50 = 124 µM
SMILES = CC[C@H](C(=O)N1CCCC[C@@H]1C(=O)O[C@H](CCc1ccc(OC)c(OC)c1)c1cccc(OCC(=O)NCCOCCOCCN(C)C/C=C/C(=O)Nc2cc3c(Nc4ccc(F)c(Cl)c4)ncnc3cc2OC)c1)c1cc(OC)c(OC)c(OC)c1; cell line = NCI-H1975 expressing FKBP12F36V-PTPN2; test = cell viability, CellTiter-Glo; conditions = 6 days; IC50 = 2.58 µM
SMILES = CC1(C)CCCC(C)(C2CCC3(C)C2C(O)CC2C4(C)CCC(OC(=O)[C@@H](N)Cc5c[nH]c6ccccc56)C(C)(C)C4C(O)CC23C)O1 (stereo partly shown); cell line = Hep3B; test = HRE reporter gene, inhibitor; conditions = 24 h, hypoxia; IC50 = 2.11 ± 0.28 µM
SMILES = CC1=C2[O][Ru-]([Cl])[O+]=C2C=CN1CCCN1C=CC2=[O+][Ru-]([Cl])[O]C2=C1C.Cc1ccc(C(C)C)cc1.Cc1ccc(C(C)C)cc1; cell line = RT-4; test = cell growth or viability, crystal violet; conditions = 96 h; IC50 = > 20 µM
SMILES = CC1(C)CCCC(C)(C2CCC3(C)C2C(O)CC2C4(C)CCC(OC(=O)c5cn(-c6ccc(Cl)cc6)nn5)C(C)(C)C4C(OC(=O)c4cn(-c5ccc(Cl)cc5)nn4)CC23C)O1 (stereo not shown); cell line = Hep3B; test = HRE reporter gene, inhibitor; conditions = 24 h, hypoxia; IC50 = > 30 µM
SMILES = C[N+]1(C)CC[NH2+][Pt-2]1([OH])([Cl])([Cl])[O]C(=O)CCC(=O)OCCO; cell line = P31; test = cell viability, EZ4U; conditions = 96 h; IC50 = 124 ± 4 µM
SMILES = Cc1ccc(NC(=O)c2c(C)oc3ccc(O)c(CN4CCCCCC4)c23)cc1; cell line = KMM-1; test = cell growth or viability, MTS; conditions = 72 h; IC50 = 15.6 µM
SMILES = O=c1[nH]c2ccccc2nc1/C=C/c1ccc2ccccc2n1; cell line = HeLa 229; test = cell growth or viability, MTT; conditions = 72 h; IC50 = > 50 µM
SMILES = C=CC(=O)N1CCCC(n2c(=O)c3ncccc3n(Cc3ccc(Oc4ccccc4)cc3)c2=O)C1 (stereo not shown); cell line = VL51 idelalisib-resistant; test = cell proliferation, MTT; conditions = 72 h; IC50 = 0.1 µM
SMILES = O=C(OCc1cccc(O)c1O)c1ccc(O)c(CO)c1; cell line = COS-phox cells; test = superoxide production, lucigenin chemiluminescence; conditions = with: PMA; IC50 = 0.24 µM
SMILES = COc1c(OCCCCN2CCCC2)cc(O)c2c(=O)cc(-c3ccccc3)oc12; cell line = KBM5-T315I; test = cell growth, CCK-8; conditions = 12 h; IC50 = 5.88 ± 1.67 µM
SMILES = CN1CCCNC(=O)c2cccc(c2)C(=O)NCCCN(C)CCCNc2cccc3c2C(=O)c2cccc(c2C3=O)NCCC1; cell line = normal cells, mouse bone marrow cells; test = cell proliferation; conditions = general range; IC50 = > 6 µM
SMILES = CC1CCc2c(c(-c3c[nH]nc3C(F)(F)F)nc3ccc4[nH]ncc4c23)C1 (stereo not shown); cell line = MOLM-14; test = cell growth or viability, resazurin; conditions = 72 h; IC50 = 0.0268 µM
SMILES = C[C@]12CC/C(=N\OCCN3CCCCC3)C=C1CCC1C2CC[C@]2(C)/C(=C/c3ccccn3)CCC12 (stereo partly shown); cell line = CEM; test = cytotoxicity, alamarBlue; conditions = 72 h; IC50 = 18 µM
SMILES = C=CCc1cc(OC)c(OC(C)=O)c(OC)c1; cell line = HMEC; test = MTT; conditions = 24 h; IC50 = > 50 µM
SMILES = Oc1ccc(-c2csc(Cc3ccccc3)n2)c(O)c1; cell line = HPNE; test = cell growth or viability, resazurin; conditions = 72 h; IC50 = 15 µM
SMILES = NC(=S)NNC(=O)c1cc2ccc(O)cc2oc1=O; cell line = EA.hy 926; test = cell growth or viability, SRB; conditions = 72 h; IC50 = 26.6 µM
SMILES = CCOC(=O)c1csc2nc(-c3cccc(NC(=O)c4cc5cc(NC(=O)C(C)Cl)ccc5n4Cc4ccc(C(F)(F)F)cc4)c3)cn12 (stereo not shown); cell line = RAW264.7; test = TNF-α release, inhibitor, ELISA; conditions = 24 h, LPS-stimulated; IC50 = 12.9 µM
SMILES = CCC(C)C1OC(=O)C(C)(C)C(=O)C(Cc2ccccc2)OC(=O)C(C(C)C)OC(=O)C(NC(=O)c2cccc(O)c2)C(C)OC1=O (stereo not shown); cell line = PC-9/GR gefitinib-resistant; test = cell viability, CCK-8; conditions = 72 h; IC50 = 9.13 ± 0.189 µM
SMILES = O=C(O)Cc1ccccc1Nc1c(Cl)cccc1Cl.O=C(O)Cc1ccccc1Nc1c(Cl)cccc1Cl.c1cnc2c(c1)ccc1cccnc12.c1cnc2c(c1)ccc1cccnc12; cell line = CAL-27; test = cell viability, MTT; conditions = 48 h; IC50 = 1.69 ± 0.026 µM
SMILES = CC(C)(C)OC(=O)NCC(=O)OC1CC2(C)C(CC(O)C3C(C4(C)CCCC(C)(C)O4)CCC32C)C2(C)CCC(O)C(C)(C)C12 (stereo not shown); cell line = Hep3B; test = HRE reporter gene, inhibitor; conditions = 24 h, hypoxia; IC50 = 2.04 ± 0.23 µM
SMILES = COc1cc(CN2CCN(c3ccc(Cl)cc3)CC2)c2cc3[n+](cc2c1O)CCc1cc2c(cc1-3)OCO2; cell line = Ca-Ski; test = cell growth or viability, SRB; conditions = 48 h; IC50 = 6.98 µg/mL
SMILES = [Cl][Pt-]1([Cl])[S]C(Nc2ccccc2)=N[N+]1=Cc1cccs1; cell line = MDCK; test = cell proliferation; IC50 = 10.8 µM
SMILES = COc1ccc(-n2cc(C(=O)OC3CCC4(C)C(C(O)CC5(C)C4CC(O)C4C(C6(C)CCCC(C)(C)O6)CCC45C)C3(C)C)nn2)cc1 (stereo not shown); cell line = Hep3B; test = HRE reporter gene, inhibitor; conditions = 24 h, hypoxia; IC50 = 0.33 ± 0.1 µM
SMILES = COC(=O)[C@]12CS[C@H](c3ccccc3)N1C(=O)/C(=C(\O)CCc1ccccc1)C2=O; cell line = MDCK; test = cell growth or viability, resazurin; IC50 = 62.5 µg/mL
SMILES = CC(C)=CCc1c2c(c(O)c3c(=O)c(-c4ccc(O)cc4)coc13)C=CC(C)(C)O2; cell line = Huh-7; test = cell growth or viability, MTT; conditions = 24 h; IC50 = 16.3 µM
SMILES = C=CC(OC(C)=O)c1ccccc1 (stereo not shown); cell line = HMEC; test = MTT; conditions = 24 h; IC50 = > 50 µM
SMILES = COc1cccc2cc(C(=O)NNc3nc(-c4ccccc4)cs3)c(=O)oc12; cell line = EA.hy 926; test = cell growth or viability, SRB; conditions = 72 h; IC50 = 89 µM
SMILES = CC(C)=CCC1=C(O)c2c(occ(-c3ccc(O)cc3)c2=O)C(CC=C(C)C)(CC=C(C)C)C1=O; cell line = Huh-7; test = cell growth or viability, MTT; conditions = 24 h; IC50 = 14.8 µM
